Experimental data from different studies.
Protocols differ between the studies behind these lines. “And” joins repeats or separate records; there may be more than shown. ± gives the spread as reported.
HTR1E: 5-hydroxytryptamine receptor 1E (HTR1E, Homo sapiens, UniProt P28566)
Palmitoyl-protein thioesterase 1: Palmitoyl-protein thioesterase 1 (Homo sapiens, UniProt P50897)
Luciferin 4-monooxygenase: Luciferin 4-monooxygenase (Photinus pyralis, UniProt P08659)
Cacna1b: Voltage-dependent N-type calcium channel subunit alpha-1B (Cacna1b, Rattus norvegicus, UniProt Q02294)
DRD1: D(1A) dopamine receptor (DRD1, Homo sapiens, UniProt P21728)
Adhesin FmlH lectin domain: Adhesin FmlH, lectin domain (Escherichia coli, UniProt Q1RBS0)

SMILES | tested on | test | test system | conditions | scale | inhibition
COc1cccc(OC[C@@H]2CN(CCN3CCc4ccccc43)CCO2)c1 | HTR1E | radioligand binding |  | concentration not given, together with: [3H]5-HT |  | -10.8%
C=CCCCCCCCCC(=O)O | Palmitoyl-protein thioesterase 1 | Spectrum Collection screen |  | concentration not given, together with: substrate 20 µM |  | 62%
Cc1ccc(N(O)N=Nc2ccc(S(=O)(=O)Nc3onc(C)c3C)cc2)cc1 | α-glucosidase, rat intestine | enzyme activity |  | 300 µg/mL, together with: 4-nitrophenyl α-D-glucopyranoside |  | 42.5%
Nc1cc(-c2ccncc2)c[nH]c1=O | Palmitoyl-protein thioesterase 1 | Spectrum Collection screen |  | concentration not given, together with: substrate 20 µM |  | 68.5%
Cc1ccc(S(=O)(=O)O)cc1 | THP-1 | pyroptotic LDH release |  | 2 µM, 40 min, together with: LPS then nigericin |  | 7.99%
Clc1cccc(OC[C@H]2CN(CCN3CCc4ccccc43)CCO2)c1 | HTR1E | radioligand binding |  | concentration not given, together with: [3H]5-HT |  | -15.8%
FC(F)(F)C1=C/C(=C\CCCCCCOCc2ccccc2)c2cc3c(cc21)OCO3 | P4HB (Homo sapiens, UniProt P07237) | enzyme activity, inhibitor, insulin reduction |  | concentration not given, biochemical |  | no effect
c1ccc(Cn2ncc3[nH]c(-c4ccc(-n5ccnc5)cc4)nc32)cc1 | Luciferin 4-monooxygenase | luciferase luminescence, inhibitor | cell-free | 50 µM, counter-screen |  | 7.2%
COc1cc2c3c(c1OC)-c1cc4c(cc1CC3N(C)CC2c1ccccc1)OCO4 (stereo not drawn) | NMDA | binding, radioligand binding |  | concentration not given |  | < 50%
CCN(O)N=Nc1ccc(S(=O)(=O)Nc2nccs2)cc1 | α-glucosidase, rat intestine | enzyme activity |  | 240 µg/mL, together with: 4-nitrophenyl α-D-glucopyranoside |  | 55 ± 1.38%
CN1CCN(c2cc(-c3ccncc3)c(-c3ccc4ccccc4c3)nn2)CC1 | TSHR (Homo sapiens, UniProt P16473) | antagonist, FLIPR |  | 10 µM |  | 20.2%
NC/C(=C\F)COc1cccc(Cn2c(=S)[nH]c(=O)c3[nH]cnc32)c1 | Myeloperoxidase (MPO, Homo sapiens, UniProt P05164) | enzyme activity |  | 15 µM |  | 99.7% and 100% and 99.8% and 99.5%
COc1cc(C(=O)NS(=O)(=O)c2ccccc2C)ccc1Cc1cn(C)c2ccc(NC(=O)OC3CCCC3)cc12 | Volume-regulated anion channel subunit LRRC8C, part LRRC8A IL1 chimera (LRRC8C, Homo sapiens, UniProt Q8TDW0, Y126F) | ion current, inhibitor, whole-cell patch clamp | HCT LRRC8-/- cells | 30 µM, +100 mV |  | 84.2% and 97.8% and 87.4% and 95.9%
CN(C(=O)n1cnc(-c2ccc[n+]([O-])c2)c1)C1CCCCC1 | OPRD1 (Homo sapiens, UniProt P41143) | binding |  | 10 µM |  | 8.82%
CCOC(=O)[N-]c1cn(N2CCOCC2)n[o+]1 | Palmitoyl-protein thioesterase 1 | Spectrum Collection screen |  | concentration not given, together with: substrate 20 µM |  | 69.3%
Cn1cncc1[C@@](N)(c1ccc(Cl)cc1)c1ccc2c(c1)c(-c1cccc(Cl)c1)cc(=O)n2C | Protein farnesyltransferase (Homo sapiens, UniProt P49354+P49356) | enzyme activity, inhibitor, scintillation proximity | leukaemia patients, leukaemic blasts | 200 mg/m^2, 10 days, range | baseline: pretreatment | 38 to 82%
O=c1oc(-c2ccco2)nc2ccccc12 | F11 (Homo sapiens, UniProt P03951) | chromogenic substrate hydrolysis |  | up to 50 µM |  | no inhibition
COc1ccc(C2=NC3(CCN(C(C)=O)CC3)NC(c3ccccc3O)C2)cc1 (stereo not drawn) | Luciferin 4-monooxygenase | luciferase luminescence, inhibitor | cell-free | 50 µM, counter-screen |  | 10.1%
COc1ccc(F)cc1C(=O)NCc1ccc(-c2nn([C@@H](C)C(F)(F)F)c(N)c2C(N)=O)cc1 | STE20-related kinase adapter protein beta (Homo sapiens, UniProt Q9C0K7) | target engagement, competitive chemoproteomics | human PBMCs | 0.1 µM |  | 8.1%
CC(C)C(O)C(=O)O (stereo not drawn) | THP-1 | pyroptotic LDH release |  | 2 µM, 40 min, together with: LPS then nigericin |  | 1.69%
Cc1ccc(OC[C@@H]2CN(CCN3CCc4ccccc43)CCO2)cn1 | HTR1E | radioligand binding |  | concentration not given, together with: [3H]5-HT |  | -11.3%
CN(C)c1cnn(CC2CC(c3ccccc3)=NO2)c(=O)c1 (stereo not drawn) | Luciferin 4-monooxygenase | luciferase luminescence, inhibitor | cell-free | 50 µM, counter-screen |  | 86.6%
Cc1ccc(C(=O)Nc2ccc3ccccc3c2)o1 | Cacna1b | ion current, inhibitor, whole-cell patch clamp |  | 10 µM |  | 3.8% and 10% and 8.2% and 10.1% and 7.4%
COc1cccc(OC[C@@H]2CN(CC(=O)N3CCc4ccccc43)CCO2)c1 | DRD1 | radioligand binding |  | concentration not given, together with: [3H]SCH23390 |  | 26.3%
COc1cc(O)c(C(=O)c2ccccc2)cc1S(=O)(=O)O | Palmitoyl-protein thioesterase 1 | Spectrum Collection screen |  | concentration not given, together with: substrate 20 µM |  | 69.7%
CSc1ncc(CN2CCC(Oc3ccc(C(=O)N4CCCC4)cc3)CC2)cn1 | Luciferin 4-monooxygenase | luciferase luminescence, inhibitor | cell-free | 50 µM, counter-screen |  | 3.73%

SMILES | tested on | test | test system | conditions | scale | inhibition
CC(C)c1noc2ncc(C(=O)c3ccccc3O)cc12 | Cacna1b | ion current, inhibitor, whole-cell patch clamp |  | 10 µM |  | 0.93% and 0% and 3.4%
O=c1ccc2nc3ccc(O[C@@H]4O[C@H](CO)[C@H](O)[C@H](O)[C@H]4O)cc3oc-2c1 | Adhesin FmlH lectin domain | binding to desialylated mucin, ELISA competition | UPEC UTI89 | 10 µM, together with: desialylated bovine submaxillary mucin |  | 24 ± 3.2%
Cc1ccnc(OC[C@H]2CN(CC(=O)N3CCc4ccccc43)CCO2)c1 | HTR1E | radioligand binding |  | concentration not given, together with: [3H]5-HT |  | -8.9%
CCN(O)N=Nc1ccc(S(=O)(=O)Nc2cc(C)on2)cc1 | α-glucosidase, rat intestine | enzyme activity |  | 20 µg/mL, together with: 4-nitrophenyl α-D-glucopyranoside |  | 20 ± 1.38%
Cc1ncccc1OC[C@H]1CN(CCN2CCc3ccccc32)CCO1 | DRD1 | radioligand binding |  | concentration not given, together with: [3H]SCH23390 |  | 44%
CCN(O)N=Nc1ccc(S(=O)(=O)Nc2onc(C)c2C)cc1 | α-glucosidase, rat intestine | enzyme activity |  | 60 µg/mL, together with: 4-nitrophenyl α-D-glucopyranoside |  | 15 ± 0.013%
Cn1cc(-c2cnc3ccc(NC(=O)Nc4ccc(F)c(Br)c4)cc3n2)cn1 | CHUK (Homo sapiens, UniProt O15111) | kinase binding, KiNativ profiling, refers to: Lys2 peptide | PANC-1 lysate | 1.25 µM |  | 1.3%
O=C(NO)c1ccc(CN2CCCCc3ccccc32)c(F)c1 | Tspo (Rattus norvegicus, UniProt P16257) | radioligand binding, PDSP radioligand binding |  | 10 µM |  | -30.8%
CCc1oc2ccccc2c1C(=O)c1cc(Br)c(O)c(Br)c1 | SLC22A12 (Homo sapiens, UniProt Q96S37, S35A) | urate uptake | HEK293T | 0.5 µM, 10 min, 37 °C, together with: 200 µM [14C]urate |  | 64.6% and 61.9% and 71.4% and 69.6%
Cc1noc(NS(=O)(=O)c2ccc(N=NN(C)O)cc2)c1C | α-glucosidase, rat intestine | enzyme activity |  | 300 µg/mL, together with: 4-nitrophenyl α-D-glucopyranoside |  | 57.5 ± 2.63%
Nc1cc(C(Cl)=C(Cl)Cl)c(S(N)(=O)=O)cc1S(N)(=O)=O | Palmitoyl-protein thioesterase 1 | Spectrum Collection screen |  | concentration not given, together with: substrate 20 µM |  | 60.4%
Cn1cc([C@@H]2C[C@H]3CN(Cc4cccc(Cl)c4)C(=O)[C@]34CCCN24)cn1 | Luciferin 4-monooxygenase | luciferase luminescence, inhibitor | cell-free | 50 µM, counter-screen |  | -12.1%
Cc1cc(NS(=O)(=O)c2ccc(N=NN(C)O)cc2)no1 | α-glucosidase, rat intestine | enzyme activity |  | 240 µg/mL, together with: 4-nitrophenyl α-D-glucopyranoside |  | 60%
CCN1CCN(Cc2cc(NC(=O)c3ccc(C)c(-c4ccc5nc(NC(=O)C6CC6)cn5n4)c3)cc(C(F)(F)F)c2)CC1 | JAK2 (Homo sapiens, UniProt O60674, V617F) | kinase activity, inhibitor, KiNativ profiling | SET-2 | 5 µM |  | 87.3%
Cc1nn(-c2nc3c(F)cc(F)cc3s2)c(O)c1C(c1ccccc1C(F)(F)F)c1c(C)nn(-c2nc3c(F)cc(F)cc3s2)c1O | Cyclic GMP-AMP synthase, catalytic domain; with DNA (CGAS, Homo sapiens, UniProt Q8N884) | cGAS phase separation, inhibitor |  | 200 µM |  | 98.2%
Cc1noc(NS(=O)(=O)c2ccc(N=NN(O)c3ccccc3)cc2)c1C | α-glucosidase, rat intestine | enzyme activity |  | 300 µg/mL, together with: 4-nitrophenyl α-D-glucopyranoside |  | 57.5 ± 0.29%
CC[C@@H]1[C@H](F)C(=O)N[C@@H]1COc1nccc2cc(C(N)=O)c(OC)cc12 | VRK2 (Homo sapiens, UniProt Q86Y07) | ATP-site probe binding, ActivX profiling | THP-1 cell lysate | 0.01 mM, Lys2 site |  | -16.6%
O=C(Nc1cccc2c(=O)cc(-c3nnn[nH]3)oc12)c1ccc(OCCCCc2ccccc2)cc1 | Volume-regulated anion channel subunit LRRC8C, part LRRC8A IL1 chimera (LRRC8C, Homo sapiens, UniProt Q8TDW0, E6A) | ion current, inhibitor, whole-cell patch clamp | HCT116 LRRC8 knockout, transfected | 3 µM, at +100 mV |  | 84.8%
COc1ccc(S(=O)(=O)N(CC(=O)NO)CC(C)C)cc1 | MMP2 (Homo sapiens, UniProt P08253) | fluorometric |  | 1 ng/mL |  | 72%
CCCN(O)N=Nc1ccc(S(=O)(=O)Nc2nccs2)cc1 | α-glucosidase, rat intestine | enzyme activity |  | 300 µg/mL, together with: 4-nitrophenyl α-D-glucopyranoside |  | 57.5 ± 0.04%
CCN1CCN(Cc2ccc(NC(=O)c3ccc(C)c(Oc4ccnc5[nH]ccc45)c3)cc2C(F)(F)F)CC1 | DGKA (Homo sapiens, UniProt P23743) |  | A-375 | 5 µM |  | -11.9%
Clc1cncc(OC[C@@H]2CN(CCN3CCc4ccccc43)CCO2)c1 | HTR1E | radioligand binding |  | concentration not given, together with: [3H]5-HT |  | -8.6%
COc1cc2ccc(=O)oc2c(OC(C)=O)c1OCC=C(C)C | Luciferin 4-monooxygenase | luciferase luminescence, inhibitor | cell-free | 50 µM, counter-screen |  | 39.5%
O=C1c2ccccc2CCN1CCCCN1CCN(c2cccc(Cl)c2Cl)CC1 | HTR1E | radioligand binding |  | concentration not given, together with: [3H]5-HT |  | 64.5%
CC(=O)N[C@@H]1[C@@H](O[C@@H]2O[C@H](CO)[C@H](O)[C@H](O)[C@H]2O)[C@@H](O)[C@@H](CO)O[C@@H]1O | Adhesin FmlH lectin domain | binding to desialylated mucin, ELISA competition | UPEC UTI89 | 100 µM |  | 15.5 ± 6.7%

For quick reference, copied from above:
SMILES | tested on | test | test system | conditions | scale | inhibition
CC(C)c1noc2ncc(C(=O)c3ccccc3O)cc12 | Cacna1b | ion current, inhibitor, whole-cell patch clamp |  | 10 µM |  | 0.93% and 0% and 3.4%
CCN(O)N=Nc1ccc(S(=O)(=O)Nc2cc(C)on2)cc1 | α-glucosidase, rat intestine | enzyme activity |  | 20 µg/mL, together with: 4-nitrophenyl α-D-glucopyranoside |  | 20 ± 1.38%
COc1ccc(F)cc1C(=O)NCc1ccc(-c2nn([C@@H](C)C(F)(F)F)c(N)c2C(N)=O)cc1 | STE20-related kinase adapter protein beta (Homo sapiens, UniProt Q9C0K7) | target engagement, competitive chemoproteomics | human PBMCs | 0.1 µM |  | 8.1%
O=c1oc(-c2ccco2)nc2ccccc12 | F11 (Homo sapiens, UniProt P03951) | chromogenic substrate hydrolysis |  | up to 50 µM |  | no inhibition
O=C(NO)c1ccc(CN2CCCCc3ccccc32)c(F)c1 | Tspo (Rattus norvegicus, UniProt P16257) | radioligand binding, PDSP radioligand binding |  | 10 µM |  | -30.8%
